# Results of several laboratories.
# Sequences of proteins named here, by UniProt entry; tags and fusion partners are left off. Residues count along the entry.
# UniProt P12389, 28-511 limits assumed: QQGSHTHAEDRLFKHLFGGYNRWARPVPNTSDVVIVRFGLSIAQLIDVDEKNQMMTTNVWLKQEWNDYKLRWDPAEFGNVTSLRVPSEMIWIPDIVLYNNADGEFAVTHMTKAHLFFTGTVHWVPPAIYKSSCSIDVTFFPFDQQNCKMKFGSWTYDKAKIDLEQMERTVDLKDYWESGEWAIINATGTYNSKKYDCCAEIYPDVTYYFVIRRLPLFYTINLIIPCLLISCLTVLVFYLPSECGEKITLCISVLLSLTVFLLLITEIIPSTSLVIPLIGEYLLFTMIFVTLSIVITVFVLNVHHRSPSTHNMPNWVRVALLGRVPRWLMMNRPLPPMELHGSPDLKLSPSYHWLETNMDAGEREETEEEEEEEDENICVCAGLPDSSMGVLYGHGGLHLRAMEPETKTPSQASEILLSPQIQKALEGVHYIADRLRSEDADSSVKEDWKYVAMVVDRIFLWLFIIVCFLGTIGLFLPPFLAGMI
# UniProt P12392, 21-495 limits assumed: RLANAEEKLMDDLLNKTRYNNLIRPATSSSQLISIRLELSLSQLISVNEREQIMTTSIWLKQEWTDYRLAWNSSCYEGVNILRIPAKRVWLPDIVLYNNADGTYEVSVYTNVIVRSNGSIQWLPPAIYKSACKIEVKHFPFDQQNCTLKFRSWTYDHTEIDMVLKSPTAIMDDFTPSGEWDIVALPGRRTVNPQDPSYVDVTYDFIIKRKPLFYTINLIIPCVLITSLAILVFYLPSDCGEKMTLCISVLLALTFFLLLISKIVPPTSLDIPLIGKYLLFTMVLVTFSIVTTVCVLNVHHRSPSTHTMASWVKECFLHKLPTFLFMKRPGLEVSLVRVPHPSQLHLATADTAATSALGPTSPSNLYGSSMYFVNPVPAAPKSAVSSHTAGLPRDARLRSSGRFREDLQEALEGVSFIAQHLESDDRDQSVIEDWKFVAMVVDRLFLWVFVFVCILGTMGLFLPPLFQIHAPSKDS
# UniProt P37136, 32-574 limits assumed: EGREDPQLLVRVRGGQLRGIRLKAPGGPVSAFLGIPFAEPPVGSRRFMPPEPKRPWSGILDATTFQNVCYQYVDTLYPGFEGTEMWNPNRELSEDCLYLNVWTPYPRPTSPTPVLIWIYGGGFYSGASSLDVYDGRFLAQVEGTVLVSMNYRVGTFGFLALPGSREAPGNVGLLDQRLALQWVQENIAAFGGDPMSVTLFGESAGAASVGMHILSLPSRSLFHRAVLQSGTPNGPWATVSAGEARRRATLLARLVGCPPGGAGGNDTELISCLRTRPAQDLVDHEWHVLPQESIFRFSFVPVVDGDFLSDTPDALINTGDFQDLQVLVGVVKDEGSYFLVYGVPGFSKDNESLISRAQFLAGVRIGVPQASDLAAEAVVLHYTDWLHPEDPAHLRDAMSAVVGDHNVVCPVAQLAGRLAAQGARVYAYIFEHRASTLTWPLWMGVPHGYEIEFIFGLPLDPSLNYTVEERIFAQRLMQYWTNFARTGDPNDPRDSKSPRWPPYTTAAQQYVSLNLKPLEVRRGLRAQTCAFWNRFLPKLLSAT
# Lines come from different studies, so protocols differ. Numbers after ± are the reported error.
SMILES,tested on,test,system,setting,how to read,endpoint,value
CC(=O)N[C@@H](C)C(=O)N[C@@H](Cc1ccc(O)cc1)C(=O)N[C@H](C(=O)N[C@@H](CCC(=O)O)C(=O)N[C@@H](Cc1ccc(OP(=O)(O)O)cc1)C(=O)N[C@H](C(=O)N[C@@H](Cc1ccc(OP(=O)(O)O)cc1)C(=O)N[C@@H](C)C(=O)N[C@@H](C)C(N)=O)[C@@H](C)O)[C@@H](C)O,SHP-1 catalytic domain (ΔSH2),"phosphatase activity, substrate",,pH 7.4,,kcat,17 ± 1 s⁻¹
COC(=O)c1cc(Cl)ccc1NC(=O)CSc1ncc(S(=O)(=O)c2ccc(Br)cc2)c(=O)[nH]1,dengue virus 2,"viral replication, single-cycle viral yield",New Guinea C,10 µM,,inhibition,> 90%
CC[C@H](C)[C@@H]1NC(=O)[C@H](CCC(=O)O)NC(=O)[C@@H]2CCCN2C(=O)[C@H](Cc2c[nH]cn2)NC(=O)[C@H](CCCNC(=N)N)NC(=O)[C@H](C(C)C)NC(=O)[C@H](CC(N)=O)NC(=O)[C@@H]2CSSC[C@H](NC(=O)CN)C(=O)N[C@@H](CSSC[C@@H](C(N)=O)NC1=O)C(=O)N[C@@H](CO)C(=O)N[C@@H](Cc1c[nH]cn1)C(=O)N1CCC[C@H]1C(=O)N[C@@H](C(C)C)C(=O)N2,"Neuronal acetylcholine receptor; alpha2/beta4 (Rattus norvegicus, UniProt P12389+P12392)","ion current, antagonist, two-electrode voltage clamp",Xenopus oocytes,"rat, with: ACh 300 µM",,IC50,> 10 µM
CCOC(=O)c1c(-c2ccc(Cl)cc2Cl)n(-c2nc(-c3ccc(Cl)cc3)c3c(NC(=O)c4ccccc4)nnc-3[nH]2)[nH]c1=O,HL-60(TB),,,10 µM,,cell growth,5.63%
CC/C=C\C/C=C\CCC/C=C/C=C/C=C\CCCC(=O)O,HL-60 (p53-null),"cell growth, MTT",,24 h,,LD50,12.5 µM
O=C(CSc1nccn1C1CCCCC1)Nc1cc(C(F)(F)F)ccc1Cl,Plasmodium falciparum,parasite growth,,,reference: 3D7 E182D over 3D7 wild type,EC50 ratio,6.6
Cc1nc2c(C(=O)N(C)Cc3ccccc3)c[nH]n2c(=O)c1Cc1ccc(Cl)cc1,dengue virus 2,"viral replication, single-cycle viral yield",New Guinea C,5 µM,,inhibition,20%
CCOc1ccc(C2C(C#N)=C(N)Oc3c2c(C)nn3-c2ccc(Cl)cc2)cc1 (stereo not shown),Vero E6,,,0.4 µM,,viability,84.2%
C(#Cc1n[nH]c2ncccc12)c1ccccn1,PRAS40 Ser183 phosphorylation (mTORC1),LanthaScreen,HEK293E,"60 min, with: insulin",,IC50,> 10 µM
Cc1nn(-c2ccc(Cl)cc2)c2c1C(c1cc(Cl)ccc1Cl)C(C#N)=C(N)O2 (stereo not shown),Vero E6,MTT,,25 µM,,viability,64.2%
COP(=O)(OC)Oc1ccc([N+](=O)[O-])cc1Cl,"Ache (Rattus norvegicus, UniProt P37136)","enzyme activity, inhibitor, discontinuous Ellman","rat, postnatal day 12, rat heart homogenate","15 min, 37 °C",,IC50,0.084 µM
CC(C)CC(NC(=O)C(Cc1ccccc1)NC(=O)c1cnc(C(=O)NC(Cc2ccccc2)C(=O)NC(CC(C)C)B(O)O)cn1)B(O)O (stereo not shown),MM1.S,"cell viability, CellTiter-Glo",,48 h,,IC50,0.0075 µM
CC(C)C1CCC(N2CCC3(CC2)C(=O)N(CCNS(N)(=O)=O)Cc2ccccc23)CC1 (stereo not shown),,"antinociception, warm water tail withdrawal",rhesus monkey,"subcutaneous, 50 °C, cumulative dosing",,ED50,0.01 mg/kg
Cc1cc(Nc2ccc(S(F)(F)(F)(F)F)cc2)n2nc(C(C)(F)F)nc2n1,Plasmodium falciparum,"parasite growth, SYBR Green","Ugandan patient field isolates, Albumax-based medium",72 h,,EC50,0.00077 µM
CSCC[C@H](NC(=O)[C@H](CC(C)C)NC(=O)[C@H](CCCCN)NC(=O)[C@H](CCC(N)=O)NC(=O)[C@H](CCCNC(=N)N)NC(=O)[C@H](CCCCN)NC(=O)[C@H](CCCNC(=N)N)NC(=O)[C@H](CCC(N)=O)NC(=O)[C@@H](N)C(C)C)C(=O)N1CCC[C@H]1C(=O)O,human importin alpha1,pull-down with immobilized compound,Jurkat cell lysate,"concentration not given, with: 300 µM unlabelled peptide",,competition of binding,~20%
CC1(C)N=C(N)N=C(N)N1c1cccc(OCCCc2ccccc2)c1,Escherichia coli,broth microdilution,ATCC 25922,without thymidine,,MIC90,> 128 µM
CCCCCCCCCCCCCC#CC(=O)O,Plasmodium berghei,,Huh-7,"2 h post-infection, liver stage, luciferase reporter",,IC50,0.48 mg/L
CC(=O)N[C@@H](CO)C(=O)N[C@@H](C)C(=O)N[C@@H](CO)C(=O)N[C@@H](C)C(=O)N[C@@H](CO)C(=O)N[C@@H](Cc1ccc(OP(=O)(O)O)cc1)C(=O)N[C@@H](CO)C(=O)N[C@@H](C)C(=O)N[C@@H](CO)C(=O)N[C@@H](C)C(N)=O,SHP-2 catalytic domain (ΔSH2),"phosphatase activity, substrate",,pH 7.4,,kcat,42 ± 5 s⁻¹
Cc1ccc2[nH]cc(CNCC3(N4CCCC4)COC3)c2c1,T98G,single-dose screen,,"30 µM, 48 h",reference: DMSO control,viability,95.7%
CC(=O)N[C@@H](C)C(=O)N[C@@H](CCCCN)C(=O)N[C@@H](Cc1ccccc1)C(=O)N[C@@H](CCC(=O)O)C(=O)N[C@@H](CC(=O)O)C(=O)N[C@H](C(=O)N[C@@H](Cc1ccc(OP(=O)(O)O)cc1)C(=O)N[C@@H](C)C(=O)N[C@@H](C)C(N)=O)[C@@H](C)O,SHP-1 catalytic domain (ΔSH2),"phosphatase activity, substrate",,pH 7.4,,kcat,19 ± 2 s⁻¹
N#Cc1c(-c2ccc(Cl)cc2Cl)n(-c2nc(-c3ccc(Cl)cc3)c3c(NC(=O)c4ccccc4)nnc-3[nH]2)[nH]c1=O,HL-60(TB),,,,,GI50,2.74 µM
O=C(Nc1cccc(C2=NCCN2)c1)c1ccc(-c2ccc(C(=O)Nc3cccc(C4=NCCN4)c3)cc2)cc1,Leishmania donovani,EdU labelling,,concentration not given,,nuclear DNA replication,no effect

# Repeated from above:
SMILES,tested on,test,system,setting,how to read,endpoint,value
CCOC(=O)c1c(-c2ccc(Cl)cc2Cl)n(-c2nc(-c3ccc(Cl)cc3)c3c(NC(=O)c4ccccc4)nnc-3[nH]2)[nH]c1=O,HL-60(TB),,,10 µM,,cell growth,5.63%
CC/C=C\C/C=C\CCC/C=C/C=C/C=C\CCCC(=O)O,HL-60 (p53-null),"cell growth, MTT",,24 h,,LD50,12.5 µM
